# Assay results collected from several papers.
# Lines come from different studies, so protocols differ. ± gives the spread as reported.
# UniProt P55210, sequence (whole entry, looked up): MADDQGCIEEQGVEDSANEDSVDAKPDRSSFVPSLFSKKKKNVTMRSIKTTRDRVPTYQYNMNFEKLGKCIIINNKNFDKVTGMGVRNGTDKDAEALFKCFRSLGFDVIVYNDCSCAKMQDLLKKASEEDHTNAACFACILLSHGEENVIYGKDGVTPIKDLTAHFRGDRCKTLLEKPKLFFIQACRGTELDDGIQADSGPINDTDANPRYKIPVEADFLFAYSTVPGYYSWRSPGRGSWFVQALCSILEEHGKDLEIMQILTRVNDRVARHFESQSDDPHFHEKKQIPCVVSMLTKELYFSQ
# UniProt Q96GW9, sequence (whole entry, looked up): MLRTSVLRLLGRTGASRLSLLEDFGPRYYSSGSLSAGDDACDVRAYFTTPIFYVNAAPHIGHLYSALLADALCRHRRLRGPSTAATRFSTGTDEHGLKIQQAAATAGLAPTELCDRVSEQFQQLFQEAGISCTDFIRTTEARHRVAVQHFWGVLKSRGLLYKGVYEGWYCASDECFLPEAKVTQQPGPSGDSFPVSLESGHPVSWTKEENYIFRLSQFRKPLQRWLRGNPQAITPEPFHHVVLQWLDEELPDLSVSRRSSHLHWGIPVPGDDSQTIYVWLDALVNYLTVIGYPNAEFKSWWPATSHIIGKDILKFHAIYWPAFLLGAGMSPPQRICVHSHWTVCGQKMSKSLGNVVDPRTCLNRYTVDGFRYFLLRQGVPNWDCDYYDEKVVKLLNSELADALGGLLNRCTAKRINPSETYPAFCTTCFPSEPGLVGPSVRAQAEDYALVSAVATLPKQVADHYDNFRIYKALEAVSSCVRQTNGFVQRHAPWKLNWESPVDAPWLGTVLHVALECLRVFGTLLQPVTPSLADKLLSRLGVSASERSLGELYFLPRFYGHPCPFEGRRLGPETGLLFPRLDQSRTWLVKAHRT
# UniProt P0AC13, sequence (whole entry, looked up): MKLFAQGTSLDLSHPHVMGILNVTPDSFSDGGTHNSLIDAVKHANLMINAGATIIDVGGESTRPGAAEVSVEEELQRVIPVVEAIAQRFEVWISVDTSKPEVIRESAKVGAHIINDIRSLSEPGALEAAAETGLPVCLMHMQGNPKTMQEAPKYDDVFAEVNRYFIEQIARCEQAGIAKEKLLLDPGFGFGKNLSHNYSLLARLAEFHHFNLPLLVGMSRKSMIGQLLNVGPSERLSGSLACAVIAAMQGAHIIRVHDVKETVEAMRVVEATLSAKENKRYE
# UniProt P13346, sequence (whole entry, unmodified, looked up): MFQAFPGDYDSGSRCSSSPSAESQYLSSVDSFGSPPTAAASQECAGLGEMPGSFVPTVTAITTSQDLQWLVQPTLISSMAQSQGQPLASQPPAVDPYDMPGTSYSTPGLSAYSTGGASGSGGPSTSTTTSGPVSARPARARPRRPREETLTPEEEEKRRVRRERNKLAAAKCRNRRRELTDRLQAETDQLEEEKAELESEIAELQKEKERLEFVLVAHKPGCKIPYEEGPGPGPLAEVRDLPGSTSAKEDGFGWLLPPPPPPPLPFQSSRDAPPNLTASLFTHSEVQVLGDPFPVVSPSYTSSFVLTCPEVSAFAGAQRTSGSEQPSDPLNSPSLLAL
# UniProt O95831, sequence (whole entry, looked up): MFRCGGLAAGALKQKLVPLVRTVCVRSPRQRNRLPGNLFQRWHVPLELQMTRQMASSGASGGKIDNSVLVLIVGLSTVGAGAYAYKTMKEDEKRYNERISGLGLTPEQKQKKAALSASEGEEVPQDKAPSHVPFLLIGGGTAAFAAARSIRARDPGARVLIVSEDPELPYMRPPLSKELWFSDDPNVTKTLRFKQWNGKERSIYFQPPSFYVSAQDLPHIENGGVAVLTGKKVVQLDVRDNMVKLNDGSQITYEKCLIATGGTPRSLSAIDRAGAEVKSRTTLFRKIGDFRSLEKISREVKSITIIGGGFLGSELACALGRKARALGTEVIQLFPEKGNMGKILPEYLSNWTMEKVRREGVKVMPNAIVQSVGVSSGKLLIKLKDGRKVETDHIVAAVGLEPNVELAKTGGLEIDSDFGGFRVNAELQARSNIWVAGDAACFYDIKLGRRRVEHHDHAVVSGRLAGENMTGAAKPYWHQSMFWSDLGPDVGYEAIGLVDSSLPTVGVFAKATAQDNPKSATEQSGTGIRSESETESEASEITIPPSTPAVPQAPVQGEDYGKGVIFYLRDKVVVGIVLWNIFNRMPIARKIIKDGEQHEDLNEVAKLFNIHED
# UniProt P46098, sequence (whole entry, looked up): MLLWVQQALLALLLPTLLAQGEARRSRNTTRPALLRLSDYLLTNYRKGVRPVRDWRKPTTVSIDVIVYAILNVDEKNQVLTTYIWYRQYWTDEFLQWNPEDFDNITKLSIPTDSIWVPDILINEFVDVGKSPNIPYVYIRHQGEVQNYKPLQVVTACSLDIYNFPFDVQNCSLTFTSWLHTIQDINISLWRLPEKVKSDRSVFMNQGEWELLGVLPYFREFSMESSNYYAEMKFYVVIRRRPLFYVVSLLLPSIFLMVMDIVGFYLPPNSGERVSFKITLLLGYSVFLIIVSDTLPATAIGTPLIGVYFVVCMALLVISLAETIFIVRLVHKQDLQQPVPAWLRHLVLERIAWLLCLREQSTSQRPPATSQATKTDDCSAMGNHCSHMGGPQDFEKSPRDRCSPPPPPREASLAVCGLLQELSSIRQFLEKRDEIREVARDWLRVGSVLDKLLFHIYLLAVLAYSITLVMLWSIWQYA
# UniProt Q9BUB5, sequence (whole entry, looked up): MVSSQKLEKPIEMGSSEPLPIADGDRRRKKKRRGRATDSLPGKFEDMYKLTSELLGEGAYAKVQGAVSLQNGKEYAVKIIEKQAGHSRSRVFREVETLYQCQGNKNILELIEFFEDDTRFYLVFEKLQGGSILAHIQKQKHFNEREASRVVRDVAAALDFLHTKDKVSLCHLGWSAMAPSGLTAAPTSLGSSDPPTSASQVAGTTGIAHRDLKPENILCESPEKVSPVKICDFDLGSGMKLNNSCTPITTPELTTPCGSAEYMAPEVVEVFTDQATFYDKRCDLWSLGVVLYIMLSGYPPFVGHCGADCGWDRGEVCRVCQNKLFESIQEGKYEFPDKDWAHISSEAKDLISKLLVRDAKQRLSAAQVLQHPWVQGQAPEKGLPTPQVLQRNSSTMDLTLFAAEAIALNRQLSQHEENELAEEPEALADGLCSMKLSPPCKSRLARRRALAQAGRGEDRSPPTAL
# UniProt P53779, sequence (whole entry, looked up): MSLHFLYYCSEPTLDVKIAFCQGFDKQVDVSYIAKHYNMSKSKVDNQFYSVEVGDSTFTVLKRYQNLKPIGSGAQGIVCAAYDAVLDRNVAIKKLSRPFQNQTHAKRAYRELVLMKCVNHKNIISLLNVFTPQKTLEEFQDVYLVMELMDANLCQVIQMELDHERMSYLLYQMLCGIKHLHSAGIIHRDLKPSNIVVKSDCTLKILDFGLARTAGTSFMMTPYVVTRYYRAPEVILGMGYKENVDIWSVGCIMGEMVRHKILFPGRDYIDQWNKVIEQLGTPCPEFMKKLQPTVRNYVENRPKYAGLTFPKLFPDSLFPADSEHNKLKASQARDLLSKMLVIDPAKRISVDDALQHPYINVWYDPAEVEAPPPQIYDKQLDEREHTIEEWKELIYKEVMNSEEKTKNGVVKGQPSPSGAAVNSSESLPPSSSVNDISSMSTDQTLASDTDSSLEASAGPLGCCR
# UniProt P02708, sequence (whole entry, looked up): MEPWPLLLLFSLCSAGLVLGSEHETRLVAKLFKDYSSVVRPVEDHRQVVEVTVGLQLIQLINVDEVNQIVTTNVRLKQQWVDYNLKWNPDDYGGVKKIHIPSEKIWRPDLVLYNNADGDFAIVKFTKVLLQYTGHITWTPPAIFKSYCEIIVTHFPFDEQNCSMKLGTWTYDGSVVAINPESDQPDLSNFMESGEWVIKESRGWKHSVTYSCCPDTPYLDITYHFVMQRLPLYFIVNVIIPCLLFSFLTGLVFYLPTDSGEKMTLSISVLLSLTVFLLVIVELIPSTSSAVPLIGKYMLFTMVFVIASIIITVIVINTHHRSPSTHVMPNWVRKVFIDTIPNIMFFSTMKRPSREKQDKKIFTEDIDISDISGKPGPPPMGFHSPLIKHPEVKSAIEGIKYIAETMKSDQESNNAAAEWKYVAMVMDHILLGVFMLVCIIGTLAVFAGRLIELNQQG
# UniProt Q00536, sequence (whole entry, looked up): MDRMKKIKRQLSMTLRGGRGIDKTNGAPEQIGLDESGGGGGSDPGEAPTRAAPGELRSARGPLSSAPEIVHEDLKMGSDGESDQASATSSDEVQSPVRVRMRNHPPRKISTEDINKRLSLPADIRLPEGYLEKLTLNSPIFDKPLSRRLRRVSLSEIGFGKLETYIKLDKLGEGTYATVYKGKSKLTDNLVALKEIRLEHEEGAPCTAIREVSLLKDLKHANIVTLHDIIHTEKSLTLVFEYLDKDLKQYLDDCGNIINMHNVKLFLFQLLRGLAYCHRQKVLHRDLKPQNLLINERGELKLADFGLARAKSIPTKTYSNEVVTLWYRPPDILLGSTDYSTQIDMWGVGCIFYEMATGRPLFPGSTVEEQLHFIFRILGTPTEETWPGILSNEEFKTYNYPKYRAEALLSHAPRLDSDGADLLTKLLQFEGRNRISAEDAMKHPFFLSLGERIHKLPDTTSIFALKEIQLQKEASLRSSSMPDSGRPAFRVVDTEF
# UniProt P15066, sequence (whole entry, unmodified, looked up): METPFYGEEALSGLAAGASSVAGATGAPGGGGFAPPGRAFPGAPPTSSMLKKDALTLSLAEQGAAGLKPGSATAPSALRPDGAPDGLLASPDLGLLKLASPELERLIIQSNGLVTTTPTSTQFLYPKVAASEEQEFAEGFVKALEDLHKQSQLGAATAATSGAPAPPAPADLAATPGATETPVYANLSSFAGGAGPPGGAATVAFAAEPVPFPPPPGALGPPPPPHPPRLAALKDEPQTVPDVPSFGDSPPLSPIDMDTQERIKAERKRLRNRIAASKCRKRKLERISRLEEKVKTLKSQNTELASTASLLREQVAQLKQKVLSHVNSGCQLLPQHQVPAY
Compound,target or system,assay,test system,setting,scale,measurement,result
CC[C@H](C)[C@H](NC(=O)[C@H](CC(C)C)NC(=O)[C@H](CC(C)C)NC(=O)[C@H](CC(=O)O)NC(=O)[C@@H](NC(=O)[C@H](CCC(=O)O)NC(=O)[C@H](CCCCN)NC(=O)[C@H](Cc1ccc(O)cc1)NC(=O)[C@H](CCCCN)NC(=O)[C@H](Cc1c[nH]cn1)NC(=O)CNC(=O)CN)[C@@H](C)O)C(=O)N[C@@H](CC(C)C)C(=O)N[C@@H](Cc1ccccc1)C(=O)N[C@@H](CCCCN)C(=O)N[C@@H](CC(=O)O)C(=O)N[C@@H](CC(=O)O)C(=O)N[C@@H](Cc1ccc(O)cc1)C(=O)N[C@@H](Cc1ccccc1)C(=O)N[C@@H](C)C(=O)N[C@@H](CCCCN)C(=O)N[C@@H](CCCCN)C(=O)N[C@@H](CC(N)=O)C(=O)N[C@@H](CCC(=O)O)C(=O)N[C@@H](CCC(=O)O)C(=O)N[C@@H](CCCNC(=N)N)C(=O)N[C@@H](CCCCN)C(N)=O,HCV IRES RNA,RNA cleavage,hepatitis C virus,,,kcat/Km,3500 M⁻¹ s⁻¹
Cn1nc(CCN)c(=O)c2c(=O)[nH]c(N)nc21,"folP (Bacteria, UniProt P0AC13)",CETSA HiBiT,"Escherichia coli, whole cells",concentration not given,relative to: DMSO,melting temperature shift,0.9 °C
COc1ccc(C(=O)CCl)cc1,"Fosb/Jund, ΔFosB bZIP domain (Mus musculus, UniProt P13346+P15066)","intact mass LC-MS, item: JUND adduct, HCl lost",,concentration not given,relative to: total JUND species,relative abundance,36.3%
CCN(N=Cc1cnc2ccc(Br)cn12)S(=O)(=O)c1cc([N+](=O)[O-])ccc1C,"PIK3CA (Homo sapiens, UniProt P42336, I771Y)",luminescence,,,relative to: mutant over wild type,IC50 fold change,10
CS(C)(=O)=Nc1ccc(-c2ccc(-c3nc4cc(O[C@@H]5CO[C@H]6[C@@H]5OC[C@H]6O)[nH]c4cc3F)cc2)cc1,"VIPR1 (Homo sapiens, UniProt P32241)","calcium signal, antagonist",,10 µM,,inhibition,29%
COc1ccccc1-c1n[nH]c2nc(NC3CCN(C(=O)Cc4ccc(F)cc4F)CC3)ncc12,,"bead binding, competition bead pull-down, item: LINJ.31.2210",Leishmania donovani extract,10 µM,relative to: vehicle,relative abundance,0.9
CN(C)[C@H]1C[C@@]23CC[C@@]4(O2)C(=CC[C@]2(C)[C@@H](c5ccc6ccncc6c5)CC[C@H]24)C=C3[C@@H](O)[C@@H]1O,"BRAF (Homo sapiens, UniProt P15056)","ATP probe labelling, inhibitor, KiNativ profiling",,0.1 µM,,inhibition,2.6%
Nc1ccc(/C=C/C(=O)N2CCc3c(oc4c(-c5ccc(F)cc5)cc(-c5ccc(C(=O)N6CCC(F)(F)CC6)cn5)cc34)C2)cn1,"CDK16 (Homo sapiens, UniProt Q00536)","binding, competition with immobilised ligand",,1 µM,,remaining binding,72%
CC(C)CC(O)(CC(C)C)c1cn(C(=O)N2CCCC2)nn1,"Patatin-like phospholipase domain-containing protein 6 (Mus musculus, UniProt Q3TRM4)","probe labelling, inhibitor, competitive ABPP-SILAC, item: Pnpla6",mouse T cells,"concentration not given, 4 h, in situ, protein level","relative to: treated over DMSO, lower = more inhibition",SILAC ratio,1.49
C[C@@H]1COCCN1c1nc(NCc2cccnc2C(F)(F)F)c2cccnc2n1,"CHRNA1/CHRNG/CHRND (Homo sapiens, UniProt P02708+P07510+Q07001)",binding,,CEREP panel,,IC50,> 100 µM
Fc1ccc2[nH]c(NCCCNCc3cc(Cl)cc(Cl)c3)nc2c1,"MARS2 (Homo sapiens, UniProt Q96GW9)",enzyme activity,,,relative to: human IC50 over T. brucei IC50,selectivity ratio,> 63.5
CC(=O)N[C@@H](CCC(N)=O)C(=O)N[C@@H](CC1CCCCC1)C(=O)N[C@@H](CNC(=O)CCl)C(=O)N[C@@H](CC(C)C)C(=O)N[C@@H](Cc1ccccc1)C(=O)O,"Beta sliding clamp (Escherichia coli, UniProt P0A988, H175G)","binding, isothermal titration calorimetry",,"concentration not given, 25 °C, H175G mutant peptide",relative to: wild-type peptide,KD fold reduction,4 fold
CC(C)CC(C(=O)N1CC2(CC1C#N)C(=O)Nc1ccccc12)N(C)C(=O)c1cc2c(F)cc(F)c(F)c2[nH]1 (stereo not shown),"Caspase-7 (CASP7, Homo sapiens, UniProt P55210)",,,,,Hill slope,-1.17
O=C1NC(=O)c2c1c1cc(F)c[n+]3c1c1c2c2cc(O)ccc2[n]1[Ru-4]312([N]=C=S)[S+]3CC[S+]1CC[S+]2CC3 (stereo not shown),"MAPK10 (Homo sapiens, UniProt P53779)",enzyme activity,,"100 nM, human enzyme, together with: 10 µM ATP",relative to: untreated,remaining activity,95%
O=C1NC2(CC2)COc2ncc(F)cc2[C@H]2COCCN2c2ccn3ncc1c3n2,,,"Sprague-Dawley rat, female, serum","oral, 5 mg/kg/day, end of recovery, 4-week subacute toxicity",,serum total protein,63.6 ± 4.3 g/L
C#CCCCCOc1ccc2c(c1)CCCN2C(=O)CCl,"AIFM1 (Homo sapiens, UniProt O95831)",mass spectrometry profiling,H460 cell lysate,"100 µM over 10 µM, UniProt O95831",relative to: high over low concentration,reactivity ratio,1.43
CC(C)[C@H]1NC(=O)C[C@H]2/C=C/CCSSC[C@@H](NC1=O)C(=O)N[C@H](Cc1cccc3ccccc13)C(=O)NCC(=O)O2,"MKNK1 (Homo sapiens, UniProt Q9BUB5)","enzyme activity, inhibitor",,10 µM,,inhibition,1.3%
CC(C)(C)C(=O)OCOP(=O)(OCOC(=O)C(C)(C)C)C1CCCN(O)C1=O (stereo not shown),COLO 205,,,,,log LC50,-4.39 log M
Cc1sc2c(c1C)C(c1ccc(Cl)cc1)=NC(CC(=O)OC(C)(C)C)c1nnc(C)n1-2 (stereo not shown),"HTR3A (Homo sapiens, UniProt P46098)","ligand displacement, radioligand",,1 µM,,remaining binding,106%

# Excerpt of the above:
Compound,target or system,assay,test system,setting,scale,measurement,result
Fc1ccc2[nH]c(NCCCNCc3cc(Cl)cc(Cl)c3)nc2c1,"MARS2 (Homo sapiens, UniProt Q96GW9)",enzyme activity,,,relative to: human IC50 over T. brucei IC50,selectivity ratio,> 63.5
CC(=O)N[C@@H](CCC(N)=O)C(=O)N[C@@H](CC1CCCCC1)C(=O)N[C@@H](CNC(=O)CCl)C(=O)N[C@@H](CC(C)C)C(=O)N[C@@H](Cc1ccccc1)C(=O)O,"Beta sliding clamp (Escherichia coli, UniProt P0A988, H175G)","binding, isothermal titration calorimetry",,"concentration not given, 25 °C, H175G mutant peptide",relative to: wild-type peptide,KD fold reduction,4 fold
